Measurements from different studies.
A part holds a random share of what one study measured.

Study 1
Target: Sal-like protein 4, full length isoform B (SALL4, Homo sapiens, UniProt Q9UJQ4-2, residues 1-616)
Method: universal PBM
Molecule type: double-stranded DNA, one strand shown
Medium: in vitro
Tested at: not given
Setting: 8-mer, flanks averaged, mean of replicates
Direction: higher = stronger binding
Target sequence (chain): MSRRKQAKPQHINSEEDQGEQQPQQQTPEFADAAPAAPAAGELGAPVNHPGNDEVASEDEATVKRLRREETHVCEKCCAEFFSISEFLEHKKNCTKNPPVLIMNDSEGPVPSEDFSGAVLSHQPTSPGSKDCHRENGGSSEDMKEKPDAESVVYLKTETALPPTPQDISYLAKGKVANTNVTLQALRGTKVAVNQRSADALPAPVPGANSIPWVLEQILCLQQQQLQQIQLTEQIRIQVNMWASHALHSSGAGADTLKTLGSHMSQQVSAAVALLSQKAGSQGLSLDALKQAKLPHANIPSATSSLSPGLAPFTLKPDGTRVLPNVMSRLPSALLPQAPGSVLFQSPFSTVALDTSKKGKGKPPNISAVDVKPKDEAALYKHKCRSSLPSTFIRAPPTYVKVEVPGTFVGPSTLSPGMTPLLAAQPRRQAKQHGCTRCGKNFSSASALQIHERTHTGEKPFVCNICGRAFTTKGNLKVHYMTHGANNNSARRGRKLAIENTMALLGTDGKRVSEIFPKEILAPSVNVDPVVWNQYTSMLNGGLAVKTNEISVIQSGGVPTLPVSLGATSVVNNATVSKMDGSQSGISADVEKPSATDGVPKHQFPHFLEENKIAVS
| Oligonucleotide | E-score |
| --- | --- |
| AAGCATCT | 0.0717 |
| GCGCGCAA | -0.132 |
| AGTATGGG | -0.0345 |
| CCGATACC | -0.182 |
| CATATTCA | 0.345 |

Study 2
Target: Interferon regulatory factor 5, full length, phosphomimetic (IRF5, Homo sapiens, UniProt Q13568-2, residues 1-514, K96S/S451D/S453D/S456D/S462D)
Method: protein-binding microarray
Molecule type: double-stranded DNA, one strand shown
Medium: in vitro
Tested at: 250 nM
Setting: 60-bp whole probe
Together with: salmon DNA 0.4 mg/ml
Baseline: random background probes
Direction: higher = stronger binding
| Oligonucleotide | log fluorescence [z-score] |
| --- | --- |
| GCCTAGCACTTCTCTCCCATTCTGAATTCGTGCTAGGTCTTGATTCGCTTGACGCTGCTG | 0.718 |
| GCCTAGCACTTAGGTTCCATTTTCCTTTAGTGCTAGGTCTTGATTCGCTTGACGCTGCTG | 0.914 |
| GCCTAGCACTTAGGCCTGGGTATCGGTTAGTGCTAGGTCTTGATTCGCTTGACGCTGCTG | 3.52 |
| GCCTAGCACTCAAATTTGGAAACCGAACTGTGCTAGGTCTTGATTCGCTTGACGCTGCTG | 0.125 |

Study 3
Target: Histone acetyltransferase KAT6A, winged helix 1, GST fusion (KAT6A, Homo sapiens, UniProt Q92794, residues 1-85)
Method: protein binding microarray
Molecule type: double-stranded DNA, one strand shown
Medium: in vitro
Tested at: not given
Setting: 8-mer, flanks averaged, mean of 2 arrays, mostly near background
Baseline: not given
Direction: higher = stronger binding
Residues (chain): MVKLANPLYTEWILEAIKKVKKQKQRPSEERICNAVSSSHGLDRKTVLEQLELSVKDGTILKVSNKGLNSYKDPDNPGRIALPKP
| Oligonucleotide | E-score |
| --- | --- |
| TCTTAAAA | -0.255 |
| GAACAAGA | -0.0783 |
| AGCGTCAT | -0.0119 |
| ATACTAGA | -0.137 |

Other studies, line by line
| Substance | target | test | test system | setting | how to read | measurement | result |
| --- | --- | --- | --- | --- | --- | --- | --- |
| PhoQ, residues 284 288 289 292 302 303 SSTLLI | PhoP, residues 12 14 15 18 19 LWHVM (Escherichia coli, UniProt P23836) | Sort-seq, item: YFP reporter | E. coli | PhoQ-PhoP variant library, together with: 10 µM Mg2+ | baseline: high Mg2+ state, higher = stronger signaling | fold induction | 4.3 |

Repeated from above (study 3):
| Oligonucleotide | E-score |
| --- | --- |
| AGCGTCAT | -0.0119 |
